Published values from different studies.
Compare with care: the assays were run in different laboratories. Values joined by “and” are separate records of one study, mostly repeats; a detail may differ. ± marks the error that the study gave.

CCc1cc(C(=O)NC)c2nccc(N3CCc4c(cc(Cn5ccnc5)cc4-c4cn(C)nc4C(F)(F)F)C3=O)c2c1 — body weight (Sprague Dawley rat; oral, 100 mg/kg twice daily, day 3, 7-day toxicology study): 226 ± 3.9 g
Cc1cc(NC(=O)c2cccc(NC(=O)/C=C/CN(C)C)c2)ccc1Nc1nccc(-c2cccnc2)n1 — compound remaining (metabolic stability; Wistar rat, male, primary hepatocytes; 1 µM, 120 min): 52.4%
CCCCOC(=O)N1CCN(C(=O)[C@H](CP(=O)(O)O)NC(=O)c2cc(N3CC[C@H](OC)C3)nc(-c3ccccc3)n2)CC1 — change from baseline (item: Sodium; human, blood; 16 mg, 24 h): 0.1 ± 2 mmol/L
COc1ccc2[nH]c([S+]([O-])Cc3ncc(C)c(OC)c3C)nc2c1 (stereo not drawn) — procedure-related adverse events (healthy male humans; concentration not given, required by protocol): 0%
C=CC(=O)NC1CCN(c2ncc3ncnc(Nc4ccc(Oc5ccc6c(c5)ncn6C)c(C)c4)c3n2)CC1 — dose-normalised AUC(0-inf) (healthy male volunteers, plasma; intravenous, 10 µg [14C] microtracer): 293 nmol·h/L/mg
CN(C)CCNS(=O)(=O)c1ccc(N/C=C2\C(=O)Nc3ccccc32)cc1 — logP (octanol/buffer; pH 11): 2.67
CC(C)(C(=O)N1CCOc2c(C#N)cncc2C1)C(F)F — subjects with adverse event (item: Palpitations; human; oral, 15 mg twice daily, 14 days, multiple ascending dose): 0%
O=C(O)Cc1ccccc1Nc1c(Cl)cccc1Cl — scaled intrinsic clearance (human liver microsomes; 1 µM): 8.09 L/h/kg
COc1ccc2c(c1)CN(C(=O)CCN1CCC(Cc3ccccc3)CC1)CC[S@@+]2[O-] — heart rate (telemetry; conscious dog; intravenous, 2 mg/kg, 24 h): 83 ± 16 beats/min
CC1(C)C(/C=C/C2=C(Cl)C(=C/C=C3\N(CCCCCC(=O)O)c4ccccc4C3(C)C)/CCC2)=[N+](CCCCCC(=O)O)c2ccccc21 — emission maximum (methanol): 807 nm
Cc1ccc([C@@H]2O[C@H](CO)[C@@H](O)[C@H](O)[C@H]2O)cc1Cc1ccc(-c2ccc(F)cc2)s1 — urinary potassium excretion change (Japanese type 2 diabetes patients; 100 mg, day 16, 24 h urine collection; relative to: baseline): 0.447 mEq
Cc1nc(C)c(-c2ccnc(Nc3cccc([N+](=O)[O-])c3)n2)s1 — logP (octanol/buffer; pH 11): 4.06
CC(C)n1c(Nc2cccnc2)nc2cnc(Nc3ccc(N4CCN(C)CC4)cc3)nc21 — increase in AUC (human, male, plasma; oral, dose not given, together with: itraconazole; relative to: without itraconazole): ~28%
FC(F)(F)c1ccc(CNc2ccc(Cc3c[nH]c4ncc(Cl)cc34)cn2)cn1 — treatment-related adverse events (item: Fatigue; patients with advanced solid tumours, all cohorts; oral, 1000 mg/day, any grade): 55%
CCN(CC)CCNC(=O)c1c(C)[nH]c(/C=C2\C(=O)Nc3ccc(F)cc32)c1C — serum concentration (human, serum; 25 mg maintenance dose, 24 h post-dose): 0.0305 µg/mL
COc1ncc(-c2nc3c(n2C(C)C)[C@H](c2ccc(Cl)cc2)N(c2cc(Cl)cn(C)c2=O)C3=O)c(OC)n1 — AUC(0-t) geometric mean (human patients, plasma; oral, 400 mg, 0-24 h, high-dose arm, cycle 2 day 1): 48.1 µg·h/mL
Cc1cc(NC2CCN(C(=O)OC3CCN(C(=O)/C=C/CN(C)C)C3)CC2)n2ncc(C(C)C)c2n1 (stereo not drawn) — patients with adverse event (Phase I dose escalation CTCAE v4.0, item: ALT increased; patients with advanced solid tumours; dose not given, QD dosing any grade): 16%
CCOCc1nc(O)c(-c2nnc(Cc3ccc(Cl)cn3)o2)c(O)c1-c1c(OC)cccc1OC — plasma concentration (anaesthetized rats, plasma; intravenous infusion, 10 µg/kg/min for 15 min, 30 min washout): 0.826 ± 0.016 µM
CC1(CNC(=O)[C@H](CN)NC(=O)c2ccc(-c3ccccc3)cc2)NC(=O)NC1=O (stereo partly drawn) — logP (octanol/buffer; pH 11): -0.23
COc1cc(Nc2ncc3c(n2)-c2ccc(Cl)cc2C(c2c(F)cccc2OC)=NC3)ccc1C(=O)O — patients with adverse event (item: Sepsis, grade 4; cancer patients, phase 1/2; oral, dose not given, together with: pembrolizumab): 4%
Cc1cc(C)c(CNC(=O)c2cc(Cl)c3c(c2C)O[C@@](C)([C@H]2CC[C@H](N(C)C)CC2)O3)c(=O)[nH]1 — zero-order input duration (population PK model; human; oral): 1.22 h
COc1cc2nccc(Oc3ccc(NC(=O)c4cc5c(n(-c6ccccc6)c4=O)CCCC5=O)nc3)c2cc1OC — grade ≥3 Hypophosphatemia patients (relapsed or refractory AML; oral, 10 mg once daily): 0%
Cc1c(-c2ccc(N3CCc4cccc(C(=O)Nc5nc6ccccc6s5)c4C3)nc2C(=O)O)cnn1CC12CC3(C)CC(C)(C1)CC(OCCNCC[C@H](O)CO)(C3)C2 — plasma concentration (anaesthetized male beagle dog; iv infusion, 0.3 mg/kg/min, 105 min): 0 µg/mL and 0.00144 µg/mL
CO[C@H]1/C=C/O[C@@]2(C)Oc3c(C)c(O)c4c(O)c(c(/C=N/N5CCN(C)CC5)c(O)c4c3C2=O)NC(=O)/C(C)=C\C=C\[C@H](C)[C@H](O)[C@@H](C)[C@@H](O)[C@@H](C)[C@H](OC(C)=O)[C@@H]1C — adverse event incidence (item: general administration site conditions; healthy human participants; oral, 600 mg, together with: gepotidacin 1500 mg): 6%
C=CC(=O)Nc1cc(Nc2nccc(-c3cn(C)c4ccccc34)n2)c(OC)cc1N(C)CCN(C)C — recovery (storage stability; human plasma; 5 h, -80 °C, medium QC level): 99.2%
CC[C@H](C)[C@@H]([C@@H](CC(=O)N1CCC[C@H]1[C@H](OC)[C@@H](C)C(=O)N[C@@H](Cc1ccccc1)C(=O)NCCCO)OC)N(C)C(=O)[C@@H](NC(=O)[C@H](C(C)C)N(C)C)C(C)C — inhibition of metabolism (human liver microsomes 1 mg/mL; 1 µM, together with: ketoconazole or CYP3cide): ~100%
COc1ccc([C@@H](O)c2cc(-c3ncnc4cc(N5CCOCC5)ccc34)c(F)cc2Cl)nn1 — diarrhoea TEAE incidence (locally advanced rectal cancer patients; 100 mg, together with: capecitabine and radiotherapy): 100%
COc1ccc(C(=O)CSc2nnc(-c3ccc(OC)c(OC)c3)n2-c2ccccc2)cc1 — logP (octanol/buffer; pH 11, known kinase inactives set): 3.72
CCOc1c([C@H](C)n2nc(C)c3c(N)ncnc32)cc(Cl)c(F)c1[C@@H]1CNC(=O)C1 — observations QTcF >450 ≤480 ms (ECG; previously treated B-cell malignancy patients; oral, 5 mg once daily, baseline QTcF ≤450 ms): 0%
COc1cccc(-n2nnnc2SCC(=O)Nc2c(C)cc(C)cc2C)c1 — logP (octanol/buffer; pH 11, known kinase inactives set): 3.86
COc1cccc2c(N3CCC(CCP(=O)(O)O)CC3)ncnc12 — time to brain detection (mouse C57BL/6, female, CSF and brain; subcutaneous, 50 to 100 mg/kg): ≤ 5 min
O=C(Nc1nc2cccc(-c3ccc(CN4CCS(=O)(=O)CC4)cc3)n2n1)C1CC1 — treatment-emergent adverse events (item: gingival bleeding; human rheumatoid arthritis patients; oral, 300 mg once daily, 4 weeks, regardless of relatedness): 0%
O=C(OC(C(F)(F)F)C(F)(F)F)N1CCN(Cc2cccc(Oc3ccccc3)c2)CC1 — Ktrans (PET blocking study; rhesus monkey, brain CB; 0.01 mg/kg, compound pretreatment, together with: [18F]T-401 tracer): 0.0061 min⁻¹
CNC(=O)c1ccc(-c2cnc3ncc(Cc4ccc5ncccc5c4)n3n2)cc1F — unbound Cmax (human moderate hepatic impairment; oral, 200 mg single dose, adjusted geometric mean): 0.0459 µg/mL
C[C@@H](Oc1ccc(S(C)(=O)=O)cc1C(=O)N1C[C@@H]2C[C@]2(c2cc(C(F)(F)F)on2)C1)C(F)(F)F — AUC(0-72 h) (elderly humans, plasma; oral, 25 mg single dose, geometric mean): 7 µM·h
CCN1CCN(Cc2ccc(Nc3ncc(F)c(-c4cc(F)c5nc6n(c5c4)[C@H](C)CCC6)n3)nc2)CC1 — Cmax (human, plasma; 400 mg single dose, mean): 0.196 µg/mL
CCn1c(SCC(=O)Nc2ccccc2OC)nnc1-c1ccco1 — logP (octanol/buffer; pH 11, known kinase inactives set): 2.44
CN(C(=O)n1cnc(-c2cccnc2)c1)[C@H]1CC[C@H](O)CC1 — tissue concentration (rat, cerebellum; oral, 10 mg/kg daily for 5 days, 4 h): 35.9 ± 6.5 ng/g
Cc1cc(Nc2ccc(S(F)(F)(F)(F)F)cc2)n2nc(C(C)(F)F)nc2n1 — adverse event Vomiting (Plasmodium vivax malaria patients; oral, 400 mg): 0%
CNC(=O)c1ccc(-c2cnc3ncc(Cc4ccc5ncccc5c4)n3n2)cc1F — ALT increased incidence (other cancer patients; oral, 600 mg twice daily, all grades RP2D expansion): 6%
Cn1c(=O)[nH]c2nc[nH]c2c1=O — CSF concentration (human, cerebrospinal fluid; dose not given, mean): not detected
CC(C)C[C@H](NC(=O)[C@@H](Cc1c[nH]c2ccccc12)NC(=O)[C@H](Cc1ccc(O)cc1)NC(=O)[C@H](CO)NC(=O)[C@H](Cc1c[nH]c2ccccc12)NC(=O)[C@H](Cc1c[nH]cn1)NC(=O)[C@@H]1CCC(=O)N1)C(=O)N[C@@H](CCCNC(=N)N)C(=O)N1CCC[C@H]1C(=O)NCC(N)=O — patients, drug-related metabolic TEAEs (Chinese CPP children, overall; intramuscular, 22.5 mg, 12 months, day 1, month 6): 4.5%
O=S(=O)(O)Oc1cc([C@H]2Oc3cc(O)cc(O)c3C[C@H]2O)ccc1O — CSF concentration (human, cerebrospinal fluid; concentration not given, median): 11.9 nM
NC1(C(=O)N[C@@H](CCO)c2ccc(Cl)cc2)CCN(c2nc[nH]c3nccc2-3)CC1 — dose-normalised AUC(0-last) (human, plasma; oral, 320 mg twice daily, together with: enzalutamide 160 mg daily): 1160 ng·h/mL and 1100 ng·h/mL and 1840 ng·h/mL
COc1ccccc1-n1nnnc1SCC(=O)Nc1ccccc1SC — logP (octanol/buffer; pH 11, known kinase inactives set): 3.18
CCN1/C(=C/C(C)=O)Sc2ccc(F)cc21 — diastolic blood pressure change (cynomolgus monkey; oral, 100 mg/kg, 6 h post-dose; relative to: pre-dose): 103 ± 9%
O=C(O)CCC(=O)O.[2H]C([2H])([2H])Oc1cc(C)c2[nH]ccc2c1CN1CC[C@@H](C2CC2)C[C@H]1c1ccc(C(=O)O)cc1 — subjects with elevated ALT TEAE (multiple ascending dose; healthy Chinese subjects; 50 mg twice daily): 0%
CC(=O)c1ccc([C@H]2C[C@@]3(C)[C@@H](CC[C@@]3(O)C(F)(F)C(F)(F)F)[C@@H]3CCC4=CC(=O)CCC4=C32)cc1 — serum concentration (human, pooled serum; oral, 200 mg, day 1, 8 h): 0.0094 µg/mL
CC(C)NCCCC[C@@H]1NC(=O)[C@H](Cc2ccc(O)cc2)NC(=O)[C@H](Cc2ccccc2)NC(=O)CC[C@H](C(=O)N[C@@H](CCCCNC(C)C)C(=O)N[C@@H](CCCCNC(=O)[C@H](CCC(=O)O)NC(=O)[C@H](CCC(=O)O)NC(=O)[C@H](CCC(=O)O)NC(=O)CN2CCN(CC(=O)O)CCN(CC(=O)O)CCN(CC(=O)O)CC2)C(N)=O)NC(=O)CNC(=O)[C@H](Cc2ccc3ccccc3c2)NC(=O)[C@@H](CCCNC(=N)N)NC1=O [gallium-68 labelled] — tissue uptake (mouse with Daudi xenograft, testes; intravenous, 2 h): 0.05 %ID/g
C=CCN1CC(=O)N2[C@@H](Cc3ccc(O)cc3F)C(=O)N(Cc3cccc(N4CC(N5CCN(CC)CC5)C4)n3)C[C@@H]2N1C(=O)NCc1ccccc1 — treatment-related adverse events (item: Diarrhea; advanced solid tumour patients; all doses, expansion part, any grade): 21.1%
C[C@@H](N)C1CCN(S(=O)(=O)c2cccc3cnccc23)CC1 — participants with nausea (healthy volunteers; 250 mg, fasted): 16.7%
OC[C@H]1OC(O)[C@H](O)[C@@H](O)[C@@H]1O (stereo partly drawn) — osmolality (aqueous solution; 30 mM, together with: glucosamine): 26 mOsmol/kg
Cn1cc(-c2cn3nccc3c(-c3cnn([C@]4(CC#N)C[C@@H](C#N)C4)c3)n2)cn1 — dose-normalised AUC(0-t) (healthy humans fasted, plasma; oral, 1600 mg single dose, geometric mean): 6.2 ng·h/mL/mg
Nc1cccc2ccc(/C=C/C(=O)c3ccc(O)cc3)cc12 — emission maximum (toluene; 20 °C): 548 nm
CN(C)C(=O)c1cc2cnc(Nc3ccc(-c4ccc5c(=O)cc(N6CCOCC6)oc5c4)cc3)nc2n1C1CCCC1 — concentration (BALB/c mouse, spleen; oral, 20 mg/kg, 24 h): 2.3 ± 2.2 ng/g
CC[C@@](O)(c1cnc(C(F)(F)F)c(Cl)c1)c1c2cnn(C3CC3)c(=O)c2nn1C — CLint,u (rat Sprague-Dawley male, blood; intravenous, 1 mg/kg): 0.894 L/h/kg
N#Cc1ccc2c(c1)[C@H]1CCCN(C(=O)c3ccc4[nH]cnc4c3)[C@H]1C2 — ACTH level change (human; 240 mg, day 15; relative to: baseline): 0.8 pmol/L

Excerpt of the above:
COc1cccc(-n2nnnc2SCC(=O)Nc2c(C)cc(C)cc2C)c1 — logP (octanol/buffer; pH 11, known kinase inactives set): 3.86
COc1cccc2c(N3CCC(CCP(=O)(O)O)CC3)ncnc12 — time to brain detection (mouse C57BL/6, female, CSF and brain; subcutaneous, 50 to 100 mg/kg): ≤ 5 min
O=C(Nc1nc2cccc(-c3ccc(CN4CCS(=O)(=O)CC4)cc3)n2n1)C1CC1 — treatment-emergent adverse events (item: gingival bleeding; human rheumatoid arthritis patients; oral, 300 mg once daily, 4 weeks, regardless of relatedness): 0%
O=C(OC(C(F)(F)F)C(F)(F)F)N1CCN(Cc2cccc(Oc3ccccc3)c2)CC1 — Ktrans (PET blocking study; rhesus monkey, brain CB; 0.01 mg/kg, compound pretreatment, together with: [18F]T-401 tracer): 0.0061 min⁻¹
CNC(=O)c1ccc(-c2cnc3ncc(Cc4ccc5ncccc5c4)n3n2)cc1F — unbound Cmax (human moderate hepatic impairment; oral, 200 mg single dose, adjusted geometric mean): 0.0459 µg/mL
C[C@@H](Oc1ccc(S(C)(=O)=O)cc1C(=O)N1C[C@@H]2C[C@]2(c2cc(C(F)(F)F)on2)C1)C(F)(F)F — AUC(0-72 h) (elderly humans, plasma; oral, 25 mg single dose, geometric mean): 7 µM·h
CCN1CCN(Cc2ccc(Nc3ncc(F)c(-c4cc(F)c5nc6n(c5c4)[C@H](C)CCC6)n3)nc2)CC1 — Cmax (human, plasma; 400 mg single dose, mean): 0.196 µg/mL
CCn1c(SCC(=O)Nc2ccccc2OC)nnc1-c1ccco1 — logP (octanol/buffer; pH 11, known kinase inactives set): 2.44
CN(C(=O)n1cnc(-c2cccnc2)c1)[C@H]1CC[C@H](O)CC1 — tissue concentration (rat, cerebellum; oral, 10 mg/kg daily for 5 days, 4 h): 35.9 ± 6.5 ng/g
Cc1cc(Nc2ccc(S(F)(F)(F)(F)F)cc2)n2nc(C(C)(F)F)nc2n1 — adverse event Vomiting (Plasmodium vivax malaria patients; oral, 400 mg): 0%
